Measured values collected from several papers.
Parts stem from different laboratories: compare values within a part only.
UniProt P24723, sequence (whole entry, looked up): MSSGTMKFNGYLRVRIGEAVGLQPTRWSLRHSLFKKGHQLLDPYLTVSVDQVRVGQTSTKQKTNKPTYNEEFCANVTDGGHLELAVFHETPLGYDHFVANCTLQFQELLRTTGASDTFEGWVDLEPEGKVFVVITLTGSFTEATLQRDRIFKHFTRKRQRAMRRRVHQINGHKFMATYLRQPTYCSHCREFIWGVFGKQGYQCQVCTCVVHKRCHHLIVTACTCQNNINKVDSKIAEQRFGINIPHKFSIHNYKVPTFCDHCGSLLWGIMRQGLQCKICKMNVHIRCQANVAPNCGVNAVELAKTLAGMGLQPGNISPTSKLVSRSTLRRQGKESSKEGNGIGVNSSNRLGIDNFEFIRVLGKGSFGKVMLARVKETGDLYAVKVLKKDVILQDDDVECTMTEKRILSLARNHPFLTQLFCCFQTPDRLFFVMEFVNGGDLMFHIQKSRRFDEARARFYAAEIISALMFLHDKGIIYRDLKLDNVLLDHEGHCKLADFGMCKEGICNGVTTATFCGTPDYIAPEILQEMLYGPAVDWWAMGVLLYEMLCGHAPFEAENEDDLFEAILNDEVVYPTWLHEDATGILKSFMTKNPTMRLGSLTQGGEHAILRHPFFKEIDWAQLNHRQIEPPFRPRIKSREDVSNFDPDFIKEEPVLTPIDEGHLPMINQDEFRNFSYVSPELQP
UniProt O75676, sequence (whole entry, looked up): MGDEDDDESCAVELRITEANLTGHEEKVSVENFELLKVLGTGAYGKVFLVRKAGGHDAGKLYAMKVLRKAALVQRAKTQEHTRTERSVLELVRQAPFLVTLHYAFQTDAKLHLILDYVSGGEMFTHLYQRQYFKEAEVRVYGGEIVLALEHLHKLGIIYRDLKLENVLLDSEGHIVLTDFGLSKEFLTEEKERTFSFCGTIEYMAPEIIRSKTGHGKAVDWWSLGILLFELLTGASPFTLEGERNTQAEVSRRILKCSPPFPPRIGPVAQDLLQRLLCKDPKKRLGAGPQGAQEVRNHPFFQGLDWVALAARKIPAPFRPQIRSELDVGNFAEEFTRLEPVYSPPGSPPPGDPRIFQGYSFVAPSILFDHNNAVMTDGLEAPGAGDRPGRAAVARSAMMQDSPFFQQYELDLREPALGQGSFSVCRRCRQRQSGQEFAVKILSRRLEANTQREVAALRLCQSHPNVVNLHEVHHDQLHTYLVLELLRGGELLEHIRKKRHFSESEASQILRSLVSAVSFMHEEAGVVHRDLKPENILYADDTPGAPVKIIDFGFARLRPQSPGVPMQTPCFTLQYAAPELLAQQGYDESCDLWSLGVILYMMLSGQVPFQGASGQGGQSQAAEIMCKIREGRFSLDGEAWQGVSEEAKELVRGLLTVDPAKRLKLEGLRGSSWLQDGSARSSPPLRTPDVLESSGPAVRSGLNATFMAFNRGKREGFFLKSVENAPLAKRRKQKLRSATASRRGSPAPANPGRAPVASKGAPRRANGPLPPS
UniProt Q86UE8, sequence (whole entry, looked up): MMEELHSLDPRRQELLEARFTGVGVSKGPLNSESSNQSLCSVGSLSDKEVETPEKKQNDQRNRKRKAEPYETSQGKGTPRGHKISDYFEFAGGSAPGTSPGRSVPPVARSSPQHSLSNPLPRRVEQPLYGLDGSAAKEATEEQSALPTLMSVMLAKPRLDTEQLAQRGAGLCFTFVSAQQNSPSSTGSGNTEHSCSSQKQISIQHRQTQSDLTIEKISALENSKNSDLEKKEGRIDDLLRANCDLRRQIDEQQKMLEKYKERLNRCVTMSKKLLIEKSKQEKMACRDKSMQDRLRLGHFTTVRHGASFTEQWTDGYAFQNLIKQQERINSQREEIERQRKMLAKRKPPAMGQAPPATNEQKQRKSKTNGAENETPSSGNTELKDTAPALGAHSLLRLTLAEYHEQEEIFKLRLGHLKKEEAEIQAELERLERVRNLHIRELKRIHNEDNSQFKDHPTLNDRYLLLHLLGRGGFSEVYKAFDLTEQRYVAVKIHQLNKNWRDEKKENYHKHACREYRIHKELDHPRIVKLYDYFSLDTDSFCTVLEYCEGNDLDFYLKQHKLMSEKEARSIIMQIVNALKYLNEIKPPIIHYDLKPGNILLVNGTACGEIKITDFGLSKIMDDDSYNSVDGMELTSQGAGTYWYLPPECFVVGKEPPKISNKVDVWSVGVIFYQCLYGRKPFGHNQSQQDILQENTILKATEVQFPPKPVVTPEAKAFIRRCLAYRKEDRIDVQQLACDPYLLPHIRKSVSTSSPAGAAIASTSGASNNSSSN
UniProt P46734, sequence (whole entry, looked up): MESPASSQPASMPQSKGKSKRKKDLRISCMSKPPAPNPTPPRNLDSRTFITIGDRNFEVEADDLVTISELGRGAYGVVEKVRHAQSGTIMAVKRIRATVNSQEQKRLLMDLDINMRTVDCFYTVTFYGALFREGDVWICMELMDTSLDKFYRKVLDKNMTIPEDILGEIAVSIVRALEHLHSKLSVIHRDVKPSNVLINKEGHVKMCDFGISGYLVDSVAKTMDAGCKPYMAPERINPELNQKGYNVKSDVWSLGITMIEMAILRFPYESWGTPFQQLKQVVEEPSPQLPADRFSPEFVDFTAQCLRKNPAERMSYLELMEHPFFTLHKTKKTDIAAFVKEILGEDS
UniProt O00506, sequence (whole entry, looked up): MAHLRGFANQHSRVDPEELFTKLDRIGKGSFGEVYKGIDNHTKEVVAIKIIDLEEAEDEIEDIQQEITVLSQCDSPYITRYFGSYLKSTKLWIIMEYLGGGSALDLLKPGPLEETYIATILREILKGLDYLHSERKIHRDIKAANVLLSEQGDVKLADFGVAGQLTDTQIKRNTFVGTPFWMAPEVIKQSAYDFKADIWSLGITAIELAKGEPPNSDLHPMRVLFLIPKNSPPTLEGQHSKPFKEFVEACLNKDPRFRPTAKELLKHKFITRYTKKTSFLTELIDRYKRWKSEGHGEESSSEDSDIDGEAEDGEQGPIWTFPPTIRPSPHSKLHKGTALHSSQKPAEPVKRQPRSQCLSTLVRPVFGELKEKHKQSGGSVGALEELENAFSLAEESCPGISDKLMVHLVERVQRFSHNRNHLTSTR

Study 1
SMILES: O=C(O)[C@@H]1[C@@H](Cn2nnc3ccccc3c2=O)CC[C@H]1C(=O)c1ccc(OCCC2CCOCC2)cc1
Read-out: cell-free assay
Method: competition with immobilised ligand
Concentration: 1 µM
target | remaining binding [%]
Serine/threonine-protein kinase tousled-like 2 (TLK2, Homo sapiens, UniProt Q86UE8) | 93
Protein kinase C eta type (PRKCH, Homo sapiens, UniProt P24723) | 100
Serine/threonine-protein kinase 25 (STK25, Homo sapiens, UniProt O00506) | 87
Ribosomal protein S6 kinase alpha-4, C-terminal kinase domain (RPS6KA4, Homo sapiens, UniProt O75676) | 85
Dual specificity mitogen-activated protein kinase kinase 3 (MAP2K3, Homo sapiens, UniProt P46734) | 92

Study 2
Target: Histone acetyltransferase KAT6A, winged helix 2, GST fusion (KAT6A, Homo sapiens, UniProt Q92794, residues 85-181)
Method: protein binding microarray
Form: double-stranded DNA, one strand shown
Medium: in vitro
Concentration: not given
Notes: 8-mer, flanks averaged, mean of 2 arrays, mostly near background
Relative to: not given
Direction: higher = stronger binding
Residues (chain): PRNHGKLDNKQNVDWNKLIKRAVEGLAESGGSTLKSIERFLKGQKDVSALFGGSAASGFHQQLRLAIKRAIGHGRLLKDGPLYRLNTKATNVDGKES
Sequence | E-score
GTTCCCGA | 0.11
GAAGGATC | -0.124
GCCCTCGC | -0.0365
GGAACTTA | -0.0576
ACCCGAAT | 0.0418
CCCACCTA | -0.0727
AAGTAGCG | -0.0323
CCGTATAG | 0.0644

Study 3
Target: Cyclin-dependent kinase 9, with cyclin K (CDK9, Homo sapiens, UniProt P50750)
UniProt P50750, sequence (whole entry, looked up): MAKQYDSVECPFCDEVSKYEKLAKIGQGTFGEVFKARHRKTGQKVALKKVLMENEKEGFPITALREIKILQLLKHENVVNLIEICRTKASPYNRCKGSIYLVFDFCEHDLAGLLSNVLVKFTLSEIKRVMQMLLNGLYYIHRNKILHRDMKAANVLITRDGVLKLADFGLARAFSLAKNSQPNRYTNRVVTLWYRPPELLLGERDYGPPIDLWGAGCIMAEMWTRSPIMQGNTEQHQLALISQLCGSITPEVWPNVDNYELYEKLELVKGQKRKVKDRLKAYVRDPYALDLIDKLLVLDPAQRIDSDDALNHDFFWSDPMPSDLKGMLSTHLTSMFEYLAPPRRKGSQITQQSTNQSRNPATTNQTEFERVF
Read-out: enzyme activity
Mode: inhibitor
Concentration: 0.5 µM
Relative to: control
Compound | remaining activity [%]
CO[C@H]1C[C@@H]2CC[C@@H](C)[C@@](O)(O2)C(=O)C(=O)N2CCCC[C@H]2C(=O)O[C@H]([C@H](C)C[C@@H]2CC[C@@H](O)[C@H](OC)C2)CC(=O)[C@H](C)/C=C(\C)[C@@H](O)[C@@H](OC)C(=O)[C@H](C)C[C@H](C)/C=C/C=C/C=C/1C | 106
O=C(O)c1ccc2c3c1cccc3c(=O)n1c3ccccc3nc21 | 76.4
O=S(=O)(c1cccc2cnccc12)N1CCCNCC1 | 86
O=C(Nc1cccc(Nc2cc(Nc3cccc(C(F)(F)F)c3)ncn2)c1)C1CC1 | 102
COc1ccc(OC)c2c(=S)c3ccccc3[nH]c12 | 92.2
NCCNc1ncc(C(N)=O)c(Nc2cccc(C(F)(F)F)c2)n1 | 95.6
Oc1ccc(-c2nc(-c3ccncc3)c(-c3ccc(F)cc3)[nH]2)cc1 | 101
Cc1nc(-c2ccccc2)c(-c2ccncc2)o1 | 101
CN(C)c1ccc(C=C2C(=O)Nc3ccccc32)cc1 | 100
O=C1NC(=O)C(c2cn(CCCn3ccnc3)c3ccccc23)=C1Nc1ccccc1 | 64.6
CNC(=O)c1cc(Oc2ccc(NC(=O)Nc3ccc(Cl)c(C(F)(F)F)c3)cc2)ccn1 | 101
CCOC(=O)c1c(C)[nH]c(/C=C2\C(=O)Nc3ccccc32)c1C | 97.5
O=c1c2ccccc2[nH]c(=S)n1CCN1CCC(=C(c2ccc(F)cc2)c2ccc(F)cc2)CC1 | 104
Nc1ncnc2n[nH]c(Nc3ccc(F)cc3)c12 | 92.4
COc1cc2nccc(Oc3ccc(NC(=S)NC(=O)c4ccccc4C)cc3)c2cc1OC | 108
O=C1NC(=O)C(c2cn(CCCO)c3ncccc23)=C1c1cnccn1 | 89.5
COc1ccc(C(=O)Nc2sc3c(c2C(N)=O)CCCC3)cc1OC | 85.7
Nc1[nH]nc2nc3ccccc3nc12 | 88.3
O=C(CCCc1ccc(-c2ccccc2F)cc1)Nc1ccc(O)cc1 | 96.7
COc1cc2ncnc(Nc3ccc(Oc4ccccc4)cc3)c2cc1OC | 96.7
Cn1c2ccccc2c2c3c(c4c5ccccc5n(CCC#N)c4c21)CNC3=O | 55.2
OCC(O)CCON=C1C(c2c(O)[nH]c3ccccc23)=Nc2ccccc21 (centres unmarked) | 33.2
Cc1cccc(-c2[nH]c(C(C)(C)C)nc2-c2ccc3c(c2)OCO3)n1 | 106

Study 4
Target: RNA binding protein fox-1 homolog 2, RRM domain, GST-SBP tag (RBFOX2, Homo sapiens, UniProt O43251-10, residues 100-194)
Method: RNA Bind-n-Seq
Form: RNA
Medium: in vitro
Concentration: 365 nM
Notes: natural RNA segment, single round, ends assumed
Relative to: no-protein control
Direction: higher = stronger binding
All sequences stand within: GGGAGUUCUACAGUCCGACGAUC … UGGAAUUCUCGGGUGCCAA
Target sequence (chain): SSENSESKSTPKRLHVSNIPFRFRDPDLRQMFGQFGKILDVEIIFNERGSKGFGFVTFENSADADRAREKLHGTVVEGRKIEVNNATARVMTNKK
Sequence | RBNS enrichment (R)
UCCUUGACCAUGUCUCCCACUCCACCUGCAAGUGAUUGCUGCCAUCUGUCCUGGGUGGGAUGCACCGAGCUAGUCACGGGUGUCGGAUCAGAUCUUUUAAAAACACUUGU | 0.523
AUCAAGGAUCUCCACAGAGGUGACUGUUGCCUAUCCACAACGACACUAGUGAUCACUCUUCAGAGAGUGACUCUCGGGAAAACUGAGAGAAAUGGCUUCCGGAUGAGAUG | 0.226
CUGUACCACUCCCAGAGGUCUGAGCAGGCCACAGAUAGCCCCCACCUUGCAGAGCAGGAAGUUUAGCCAGGCUCGAGUGUAUCCCCUCCAGCCCUGGCAAAGGGCUUCUG | 0.252
AGUUUCAGGGCUGGGCAGCAGGUUACUGGAGAGGCAGGCAAGAAGCGUCCUUACCUUCUCUCAUUCCCCAGCUCUCAUUCUGAGCCUUUGGUCCCUGACCUUAUGGCCAU | 0.278
CCUCUGAACACUCUGGUUUCCCCACCCAACUGCGGCUAAGUCUCUUUUUCCCUUGGAUCAGCCAAGCGAAACUUGGAGCUUUGACAAGGAACUUUCCUAAGAAACCGCUG | 0.263
UCUUUAAAUUGGGUAUAUGAAAACAUUACCAACUCUUGUUUUUCUAUAAAGAAAUACAGUUAAUAACAAGGUUUCAAAUUAUUCCUUUAACAUUAAUAGAACAAUCCAAA | 0.423
CACACACACACACACCCCUGCUCAACAGAGGUUUAGUUUACAGUCUCUGAACUAAAGUAGUAACCUCCCAAAUUGUUUUUUCUAAUAAGCUGAGAUUCCCAUUUCUCUUA | 0.602
ACUCAAGAUUAGUUUAAUUAAACUAACGAAUAGUUUUGGACACUUUAAAAGAGCUCUAAAUUUGCUUGUAUAUAAAGGCUUAAUAUGAGUUUUACUUGUUAGGGUCAAGG | 3.58

Study 5
Host: human
Medium: microsomes or S9
Concentration: 2 µM
Time: 0.5 h
SMILES | remaining compound
CC1CCc2c(sc(NC(=O)C3CCCN(S(C)(=O)=O)C3)c2C(N)=O)C1 (centres unmarked) | > 100%
CN(C)CCCNCc1cccc(Oc2nnnn2-c2ccccc2)c1 | 18.1%
COc1ccc(C)cc1NC(=O)c1cc(S(=O)(=O)N2CCOCC2)cn1C | 42.5%
